Published values collected from several papers.
Values joined by “and” are separate records of one study, mostly repeats; a detail may differ. ± marks the error that the study gave.

Compound = c1ccc2[nH]ccc2c1; cell line = HCT-8; assay = RNA-seq, item: LURAP1L; setting = concentration not given; endpoint = mRNA level, LS mean; value = 9.79 counts per million
Compound = CCCCC[C@H](O)/C=C/[C@H]1C(=O)C[C@H](O)[C@@H]1C/C=C\CCCC(=O)O; cell line = HEK293-A2AR cells, SLCO2A1 knockout; assay = HTRF cAMP; setting = 5 µM; endpoint = HTRF cAMP signal; value = 317 a.u. and 322 a.u. and 320 a.u.
Compound = CC(C)(c1ccc(O)cc1)c1ccc(O)cc1; cell line = HepG2 spheroids; assay = Hoechst flow cytometry; setting = 0.10 µM, 96 h; endpoint = G2 phase cells; value = 13.3 ± 2.14%
Compound = Cn1c(Nc2nc3ccc(C(F)(F)F)cc3s2)nc2cc(C(=O)NCCOCCO)ccc21; cell line = SH-SY5Y; assay = RNA-seq, item: IQGAP2 mRNA; setting = 5 µM, 5 h; scale = reference: untreated cells; endpoint = fold change; value = 1.58
Compound = CCOC(=O)C1=C(C)NC2=C(C(=O)OC(c3ccc(Cl)c(OC)c3)C2)C1c1ccccc1Cl (stereo not shown); cell line = J774.A1; assay = cytotoxicity; endpoint = EC50; value = > 20 µM
Compound = FC(F)c1nc2ccccc2n1-c1nc(N2CCOCC2)nc(N2CCOCC2)n1; cell line = HEK293T (G4C2)66-No-ATG-GFP reporter; assay = RAN translation of r(G4C2)exp, fluorescence reporter; setting = concentration not given; endpoint = inhibition; value = 40%
Compound = Cc1cnc(NC2CCOCC2)nc1-n1cnc(C(=O)NC(CN)c2cc(F)cc(Cl)c2)c1 (stereo not shown); cell line = MINO; assay = flow cytometry; setting = 1 µM, 48 h; endpoint = sub-G0 cells; value = 32.4%
Compound = CC/C(=N\NC(=O)NCc1cccc(O)c1)c1ccc(O)c(C)c1O; cell line = SK-OV-3; assay = ATP; setting = 10 µM, 4 days, 3D gellan gum culture; scale = reference: untreated; endpoint = relative cell number; value = 274%
Compound = NCCOc1cc(NC(=O)c2cccc(C(=O)Nc3cc(OCCN)c4ccccc4n3)n2)nc2ccccc12; cell line = HT-1080; assay = cell viability, CellTiter-Glo; setting = 72 h; scale = reference: IC50 HT-1080 over WI-38; endpoint = selectivity ratio; value = 3.4
Compound = Cc1cc(Nc2ncc(Cl)c(Nc3ccccc3S(=O)(=O)C(C)C)n2)c(OC(C)C)cc1C1CCNCC1; cell line = CLB-BAR; assay = phosphoproteomics LC-MS/MS, item: HSF1 phosphorylation; setting = 200 nM, 60 min; scale = reference: untreated; endpoint = log2 fold change; value = -3.71
Compound = O=C(Nc1cc(OCCN2CCCC2)c2ccccc2n1)c1cc(OCCN2CCCC2)cc(C(=O)Nc2cc(OCCN3CCCC3)c3ccccc3n2)n1; cell line = HT-1080; assay = cell viability, CellTiter-Glo; setting = 72 h; scale = reference: IC50 HT-1080 over WI-38; endpoint = selectivity ratio; value = 1
Compound = O=C(/C=C/C=C/C=C/C1CCCCC1)NC1=C[C@@](O)(/C=C/C=C/C=C/C(=O)NC2=C(O)CCC2=O)[C@@H]2O[C@@H]2C1=O; cell line = HT-1080; assay = cell growth, CellTiter-Glo; setting = 78 h; endpoint = GI50; value = 19.7 µM
Compound = Cc1nn(-c2nc3c(F)cc(F)cc3s2)c(O)c1C(c1cccc(C(F)(F)F)c1)c1c(C)nn(-c2nc3c(F)cc(F)cc3s2)c1O; cell line = THP1-Dual; assay = IFN luciferase reporter; setting = 1.25 µM, added: HT-DNA; endpoint = inhibition; value = -2.66% and -2.18% and -8.54% and 4.36% and -6.3% and -8.37%
Compound = CCn1cc(-c2cc(Cn3ccoc3=N)cc3c2CCN([C@@H](C)c2cc(OC)ccn2)C3=O)c(C(F)(F)F)n1; cell line = SU-DHL-8; assay = cell growth, inhibitor; setting = 120 h; endpoint = EC50; value = 0.545 µM
Compound = C=CC(=O)N1CCC[C@@H](c2ccc(C(N)=O)c3[nH]ccc23)C1; cell line = TMD8 RAC2 knock-out; assay = calcium flux, FLIPR; endpoint = maximal inhibition; value = > 60%
Compound = O=C(C[C@@H](C(F)F)n1ccc(F)n1)N1CCC(O)(Cn2cnc3c(cnn3-c3ccc(F)cc3)c2=O)CC1; cell line = CHP-212 resistant subline R3; assay = annexin V/PI flow cytometry; setting = 1 µM, 48 h; endpoint = apoptotic cells; value = 15.1% and 8.99% and 11.8%
Compound = Clc1nc(NCc2ccco2)c2[nH]cnc2n1; cell line = FD iPSC-derived cardiomyocytes; assay = alternative splicing, RNA-seq, item: CCDC34 exon chr11:27350331-27350439; setting = unit not given; scale = reference: DMSO minus compound; endpoint = ΔPSI; value = 0.27
Compound = CCCCN1C[C@H](O)[C@@H](O)[C@@H](O)[C@H]1CO; cell line = sample F patient fibroblasts; assay = GlcCer level lowering, LC-MS/MS, item: GlcCer d18:1/24:1; setting = 216 h; endpoint = IC50; value = 17 µM
Compound = CCCCc1nc2c(N)nc3ccccc3c2n1Cc1ccc(N)cc1; cell line = human PBMC; assay = ELISA; setting = concentration not given; scale = reference: resiquimod; endpoint = IFN-α induction; value = ~10 fold
Compound = CCc1ccc(NC(=O)Nc2c[nH]c3ccccc23)cc1; cell line = THP1-Dual; assay = IRF3 phosphorylation, inhibitor, Western blot densitometry; setting = 20 µM, added: HT-DNA; endpoint = phospho-IRF3/IRF3 ratio; value = 0.118 and 0.103 and 0.084
Compound = CCOC(=O)C1=C(C)NC2=C(C(=O)CC(c3ccc(OC)c(OC)c3)C2)C1c1ccc(Cl)cc1C (mixture of isomers); cell line = J774.A1; assay = cytotoxicity; endpoint = EC50; value = > 20 µM
Compound = Nc1cccc2c1C(=O)N(C1CCC(=O)NC1=O)C2=O (stereo not shown); cell line = MM1.S; assay = XTT; setting = 1 µM; endpoint = viability; value = 16% and 28% and 31%
Compound = CC(C)NCC(O)c1ccc(O)c(O)c1 (stereo not shown); cell line = mouse ventricular cardiomyocytes; setting = dose not given, 0.203 s; endpoint = sarcomere length; value = 1.74 µm
Compound = O=C1NCN(c2ccccc2)C12CCN(CCCC(c1ccc(F)cc1)c1ccc(F)cc1)CC2; cell line = MDA-MB-231 BAX/BAK siRNA knockdown; assay = cell viability, CellTiter-Glo; scale = direction not given; endpoint = Z score; value = -0.207
Compound = Cn1cc(-c2ccc(-c3cncc(Cl)c3N3CCC4(CCNC4=O)CC3)cc2)cn1; cell line = COLO 205; assay = gene expression, microarray, item: NLRP1 mRNA; setting = concentration not given, 6 h; scale = reference: untreated cells; endpoint = log2 fold change; value = 2.59
Compound = Nc1ncnc2c1ncn2[C@@H]1O[C@H](CO)[C@@H](O)[C@H]1O; cell line = activated human T cells; assay = item: carbamoyl aspartate; setting = 10 µM; scale = reference: DMSO; endpoint = log2 fold change; value = 7.9 and 7.1 and 6.6
Compound = CCOC(=O)C1=C(C)NC2=C(C(=O)CC(c3cc(OC)c(OC)c(OC)c3)C2)C1c1ccccc1Cl (stereo not shown); cell line = J774.A1; assay = cytotoxicity; endpoint = EC50; value = > 20 µM
Compound = CC(C)C[C@H](NC(=O)CNC(=O)c1cc(Cl)ccc1Cl)B(O)O; cell line = BRD4-HiBiT cells; assay = BRD4 degradation rescue, inhibitor; setting = 2 h, added: dBET6 500 nM; endpoint = EC50; value = 0.239 µM
Compound = COC1=CC(=O)C=C(OC)C1=O; cell line = MDA-MB-231 BAX/BAK siRNA knockdown; assay = CellTiter-Glo; setting = concentration not given; scale = reference: normalised luminescence; endpoint = viability; value = 6.45% and 10.8%
Compound = CC(C)C[C@@H](C=O)NC(=O)[C@H](CC(C)C)NC(=O)[C@H](CC(C)C)NC(=O)OCc1ccccc1; cell line = BRD4-HiBiT cells; assay = BRD4 degradation rescue, inhibitor; setting = 24 h, 50% degradation rescued, added: dBET6 500 nM; endpoint = EC50; value = 0.158 µM
Compound = COc1ccc(NC(=S)N/N=C/c2cccc3cc4ccccc4nc23)cc1; cell line = HeLa; assay = annexin V/PI; setting = concentration not given, 48 h, dosed at IC25; endpoint = early apoptotic cells; value = 10.6%
Compound = NS(=O)(=O)OC[C@H]1C[C@@H](Nc2ccnc3cc(-c4cccc(SC(F)(F)F)c4)nn23)[C@H](O)[C@@H]1O; cell line = BRD4-HiBiT cells; assay = BRD4 degradation rescue, inhibitor; setting = 4 h, added: dBET6 500 nM; endpoint = EC50; value = 0.38 µM
Compound = CCn1cc(-c2cc(Cn3ccnc3)cc3c2CCN([C@H](c2cc(OC)ccn2)C2CC2)C3=O)c(C(F)(F)F)n1; cell line = SW837; assay = cell growth, inhibitor; setting = 120 h; endpoint = EC50; value = > 30 µM
Compound = CC(C)=CCNc1ncnc2c1ncn2[C@@H]1O[C@H](CO)[C@@H](O)[C@H]1O; cell line = mock-transfected cells; assay = TGFα shedding, agonist; setting = 10 µM; scale = reference: unstimulated vehicle control; endpoint = AP-TGFα release; value = 6.3% and 6.97% and 6.16%
Compound = CC(=O)c1nn(-c2ccc(Cl)cc2)/c(=N/N=C(\C)c2ccc(NC(=O)c3ccc(C)cc3)cc2)s1; cell line = HepG2; setting = 0.625 µM; endpoint = toxicity; value = 78.4%
Compound = CCN1CCN(Cc2ccc(NC(=O)c3ccc(C)c(-c4ccc5nc(NC(=O)C6CC6)cn5c4)c3)cc2C(F)(F)F)CC1; cell line = MHHCALL4 B-ALL cells; assay = CellTiter-Glo; setting = concentration not given, 3 d; endpoint = cell proliferation; value = inhibited
Compound = CCCCc1oc2ccc(NS(C)(=O)=O)cc2c1C(=O)c1ccc(OCCCN(CCCC)CCCC)cc1; cell line = human embryonic stem cell aggregates; assay = mRNA level, microarray, item: RHOC; setting = 0.5 µM, 120 h; scale = reference: untreated, down-regulated; endpoint = fold change; value = 1.8 fold
Compound = C[C@@H]1CN(C(=O)c2ccc(NC(=O)c3cc(O[C@H](C)c4c(Cl)ccc(F)c4Cl)c(N)nn3)cc2)C[C@H](C)N1; cell line = Ba/F3 EML4-ALK v1, no mutation; assay = cell viability; endpoint = Emax; value = 99.5%
Compound = Cn1cc(Nc2nccc(-c3ccc4c(c3)CN(C3COC3)CC[C@H]4NC(=O)c3cn(C(C)(C)C)nn3)n2)cn1; cell line = mouse splenic B cells; assay = item: Thrombin signalling; setting = 30 mg/kg, IgD-activated in vivo; scale = reference: vehicle, direction not given; endpoint = pathway activation z-score; value = 3.71
Compound = Cc1nn(-c2nc3c(F)cc(F)cc3s2)c(O)c1C(c1ccccc1C(F)(F)F)c1c(C)nn(-c2nc3c(F)cc(F)cc3s2)c1O; cell line = THP1-Dual; assay = IFN luciferase reporter; setting = 2.5 µM, added: HT-DNA; endpoint = inhibition; value = -4.66% and -2.19% and -11.3% and -12.7% and -5.13%
Compound = CC(C)C[C@H](NC(=O)[C@H](Cc1ccccc1)NC(=O)c1cnccn1)B(O)O; cell line = BRD4-HiBiT cells; assay = BRD4 degradation rescue, inhibitor; setting = 24 h, 50% degradation rescued, added: dBET6 500 nM; endpoint = EC50; value = 0.0236 µM
Compound = C[C@@H](O)[C@H](NC(=O)Nc1ncnc2c1ncn2[C@@H]1O[C@H](CO)[C@@H](O)[C@H]1O)C(=O)O; cell line = mock-transfected cells; assay = TGFα shedding, agonist; setting = 1 µM; scale = reference: unstimulated vehicle control; endpoint = AP-TGFα release; value = 2.16% and 2.64% and 4.18%
Compound = C[C@H](Nc1ccc2c(c1)OCCn1cc(N3C(=O)OC[C@H]3C(F)F)nc1-2)C(N)=O; cell line = BT-20; assay = cell growth, CellTiter-Glo; setting = 120 h; endpoint = Hill coefficient GR curve; value = 0.678
Compound = C[C@H]1CN(C2COC2)CCN1c1ccc(Nc2cc(-c3ccnc(N4CCn5c(cc6c5CC(C)(C)C6)C4=O)c3CO)cn(C)c2=O)nc1; cell line = TMD8; assay = calcium flux, FLIPR; setting = 4 h preincubation, added: anti-IgM; endpoint = maximum inhibition; value = 59.3%
Compound = O=P(O)(O)C(O)(Cn1ccnc1)P(=O)(O)O; cell line = hFOB 1.19; assay = AlamarBlue; setting = 1.9 µM, 48 h; scale = reference: control; endpoint = viability; value = 100 ± 1%
Compound = CC(C)c1c(C(=O)Nc2ccccc2)c(-c2ccccc2)c(-c2ccc(F)cc2)n1CC[C@@H](O)C[C@@H](O)CC(=O)O; cell line = MDA-MB-231 BAX/BAK siRNA knockdown; assay = cell viability, CellTiter-Glo; scale = direction not given; endpoint = Z score; value = 0.943
Compound = COc1cnc2cccc(N3CCc4c(cc(Cn5ccnc5C)cc4-c4cn(C)nc4C(F)(F)F)C3=O)c2c1; cell line = HCC1833; assay = cell growth; setting = 120 h; endpoint = EC50; value = 14.8 µM
Compound = CCCC1=C(C(=O)OCC)C(c2ccc(Cl)cc2C)C2=C(CC(c3ccc(Cl)c(OC)c3)CC2=O)N1 (mixture of isomers); cell line = J774.A1; assay = cytotoxicity; endpoint = EC50; value = > 20 µM
Compound = Cc1cc(NS(=O)(=O)c2ccc(NC(=O)/C(C#N)=C/c3ccc(N4CCCCC4)cc3)cc2)no1; cell line = HCT-116; assay = annexin V/7-AAD flow cytometry; setting = IC50, 48 h; endpoint = late apoptotic cells; value = 12%

Some of these lines once more:
Compound = CCc1ccc(NC(=O)Nc2c[nH]c3ccccc23)cc1; cell line = THP1-Dual; assay = IRF3 phosphorylation, inhibitor, Western blot densitometry; setting = 20 µM, added: HT-DNA; endpoint = phospho-IRF3/IRF3 ratio; value = 0.118 and 0.103 and 0.084
Compound = CCOC(=O)C1=C(C)NC2=C(C(=O)CC(c3ccc(OC)c(OC)c3)C2)C1c1ccc(Cl)cc1C (mixture of isomers); cell line = J774.A1; assay = cytotoxicity; endpoint = EC50; value = > 20 µM
Compound = Nc1cccc2c1C(=O)N(C1CCC(=O)NC1=O)C2=O (stereo not shown); cell line = MM1.S; assay = XTT; setting = 1 µM; endpoint = viability; value = 16% and 28% and 31%
Compound = CC(C)NCC(O)c1ccc(O)c(O)c1 (stereo not shown); cell line = mouse ventricular cardiomyocytes; setting = dose not given, 0.203 s; endpoint = sarcomere length; value = 1.74 µm
Compound = O=C1NCN(c2ccccc2)C12CCN(CCCC(c1ccc(F)cc1)c1ccc(F)cc1)CC2; cell line = MDA-MB-231 BAX/BAK siRNA knockdown; assay = cell viability, CellTiter-Glo; scale = direction not given; endpoint = Z score; value = -0.207
Compound = Cn1cc(-c2ccc(-c3cncc(Cl)c3N3CCC4(CCNC4=O)CC3)cc2)cn1; cell line = COLO 205; assay = gene expression, microarray, item: NLRP1 mRNA; setting = concentration not given, 6 h; scale = reference: untreated cells; endpoint = log2 fold change; value = 2.59
